Measured values gathered from unrelated publications.
Protocols differ between the studies behind these lines. ± gives the spread as reported.
SPT15/TOA1/TOA2/SUA7 1-240; 1-286; 1-122; 1-345: SPT15/TOA1/TOA2/SUA7 1-240; 1-286; 1-122; 1-345 (Saccharomyces cerevisiae)
Fibroin-modulator-binding protein-1: Fibroin-modulator-binding protein-1 99-193 (Bombyx mori, UniProt Q5FBS0)
CGAS K394E: CGAS 161-522 K394E (Homo sapiens, UniProt Q8N884)
UniProt Q8N884, sequence (whole entry, unmodified, looked up): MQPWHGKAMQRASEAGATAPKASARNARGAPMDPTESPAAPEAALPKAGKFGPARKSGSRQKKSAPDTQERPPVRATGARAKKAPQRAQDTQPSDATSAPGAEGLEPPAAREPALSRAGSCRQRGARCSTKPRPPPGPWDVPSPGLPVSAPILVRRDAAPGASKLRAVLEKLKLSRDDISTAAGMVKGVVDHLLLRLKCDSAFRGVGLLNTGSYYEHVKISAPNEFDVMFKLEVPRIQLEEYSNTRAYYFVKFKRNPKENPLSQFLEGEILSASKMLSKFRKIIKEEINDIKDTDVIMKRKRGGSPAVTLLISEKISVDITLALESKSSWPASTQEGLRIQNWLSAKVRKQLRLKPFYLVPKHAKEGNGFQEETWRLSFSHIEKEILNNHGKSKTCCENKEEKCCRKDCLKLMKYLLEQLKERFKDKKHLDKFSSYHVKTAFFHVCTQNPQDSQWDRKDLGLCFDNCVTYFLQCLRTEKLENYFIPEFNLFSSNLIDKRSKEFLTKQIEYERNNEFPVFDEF
CGAS: CGAS 161-522 (Homo sapiens, UniProt Q8N884)
YAP1 full length assumed: YAP1 full length assumed (Saccharomyces cerevisiae, UniProt P19880)
UniProt P19880, sequence (whole entry, looked up): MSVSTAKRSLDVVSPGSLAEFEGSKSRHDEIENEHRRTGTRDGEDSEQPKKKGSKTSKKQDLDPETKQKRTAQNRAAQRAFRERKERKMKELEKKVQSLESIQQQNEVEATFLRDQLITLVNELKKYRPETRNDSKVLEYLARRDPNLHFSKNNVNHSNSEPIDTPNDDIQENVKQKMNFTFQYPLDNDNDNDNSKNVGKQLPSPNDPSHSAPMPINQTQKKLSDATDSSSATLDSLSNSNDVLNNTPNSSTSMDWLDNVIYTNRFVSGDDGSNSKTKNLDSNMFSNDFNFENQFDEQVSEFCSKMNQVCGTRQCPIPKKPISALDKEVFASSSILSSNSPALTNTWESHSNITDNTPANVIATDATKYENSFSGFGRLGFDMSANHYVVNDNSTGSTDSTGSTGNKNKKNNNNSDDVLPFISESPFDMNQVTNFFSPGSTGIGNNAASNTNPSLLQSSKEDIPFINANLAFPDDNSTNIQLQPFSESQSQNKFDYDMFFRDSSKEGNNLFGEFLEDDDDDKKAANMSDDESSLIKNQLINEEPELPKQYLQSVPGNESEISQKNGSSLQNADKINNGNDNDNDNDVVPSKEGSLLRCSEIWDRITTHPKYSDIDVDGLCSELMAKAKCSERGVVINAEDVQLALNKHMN
allR full length assumed: allR full length assumed (Escherichia coli, UniProt P0ACN4)
UniProt P0ACN4, sequence (whole entry, looked up): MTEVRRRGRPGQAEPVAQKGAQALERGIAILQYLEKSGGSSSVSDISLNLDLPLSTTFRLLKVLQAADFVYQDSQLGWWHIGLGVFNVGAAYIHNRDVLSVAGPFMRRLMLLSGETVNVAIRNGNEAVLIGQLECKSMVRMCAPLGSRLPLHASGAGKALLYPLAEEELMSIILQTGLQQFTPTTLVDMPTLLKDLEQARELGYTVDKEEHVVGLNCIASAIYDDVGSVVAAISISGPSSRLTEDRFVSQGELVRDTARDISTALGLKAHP
UniProt P32787, sequence (whole entry, unmodified, looked up): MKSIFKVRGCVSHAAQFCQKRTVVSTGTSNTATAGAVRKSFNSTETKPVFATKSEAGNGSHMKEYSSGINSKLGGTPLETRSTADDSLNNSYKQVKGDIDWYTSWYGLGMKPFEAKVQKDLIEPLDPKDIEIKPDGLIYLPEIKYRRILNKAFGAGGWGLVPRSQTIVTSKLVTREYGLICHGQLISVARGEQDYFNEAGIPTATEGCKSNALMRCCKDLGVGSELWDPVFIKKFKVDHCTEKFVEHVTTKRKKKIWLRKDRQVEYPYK
UniProt P46063, sequence (whole entry, unmodified, looked up): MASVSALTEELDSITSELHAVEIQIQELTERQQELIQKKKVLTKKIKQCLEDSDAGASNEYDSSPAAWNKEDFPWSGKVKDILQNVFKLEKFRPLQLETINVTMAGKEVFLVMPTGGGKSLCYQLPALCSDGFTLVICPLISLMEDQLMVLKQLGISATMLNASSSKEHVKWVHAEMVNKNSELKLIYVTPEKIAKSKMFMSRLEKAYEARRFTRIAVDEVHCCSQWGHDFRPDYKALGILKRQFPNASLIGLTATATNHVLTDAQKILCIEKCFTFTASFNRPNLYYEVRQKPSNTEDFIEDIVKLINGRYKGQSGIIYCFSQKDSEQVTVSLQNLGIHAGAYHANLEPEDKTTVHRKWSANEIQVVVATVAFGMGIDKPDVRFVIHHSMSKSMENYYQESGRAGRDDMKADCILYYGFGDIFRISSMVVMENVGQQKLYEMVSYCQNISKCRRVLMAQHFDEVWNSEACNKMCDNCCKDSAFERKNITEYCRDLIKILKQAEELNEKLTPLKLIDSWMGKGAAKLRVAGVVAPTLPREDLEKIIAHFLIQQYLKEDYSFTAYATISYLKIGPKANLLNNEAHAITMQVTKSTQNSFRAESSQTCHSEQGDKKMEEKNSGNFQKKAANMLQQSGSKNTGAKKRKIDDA
UniProt P55265, sequence (whole entry, looked up): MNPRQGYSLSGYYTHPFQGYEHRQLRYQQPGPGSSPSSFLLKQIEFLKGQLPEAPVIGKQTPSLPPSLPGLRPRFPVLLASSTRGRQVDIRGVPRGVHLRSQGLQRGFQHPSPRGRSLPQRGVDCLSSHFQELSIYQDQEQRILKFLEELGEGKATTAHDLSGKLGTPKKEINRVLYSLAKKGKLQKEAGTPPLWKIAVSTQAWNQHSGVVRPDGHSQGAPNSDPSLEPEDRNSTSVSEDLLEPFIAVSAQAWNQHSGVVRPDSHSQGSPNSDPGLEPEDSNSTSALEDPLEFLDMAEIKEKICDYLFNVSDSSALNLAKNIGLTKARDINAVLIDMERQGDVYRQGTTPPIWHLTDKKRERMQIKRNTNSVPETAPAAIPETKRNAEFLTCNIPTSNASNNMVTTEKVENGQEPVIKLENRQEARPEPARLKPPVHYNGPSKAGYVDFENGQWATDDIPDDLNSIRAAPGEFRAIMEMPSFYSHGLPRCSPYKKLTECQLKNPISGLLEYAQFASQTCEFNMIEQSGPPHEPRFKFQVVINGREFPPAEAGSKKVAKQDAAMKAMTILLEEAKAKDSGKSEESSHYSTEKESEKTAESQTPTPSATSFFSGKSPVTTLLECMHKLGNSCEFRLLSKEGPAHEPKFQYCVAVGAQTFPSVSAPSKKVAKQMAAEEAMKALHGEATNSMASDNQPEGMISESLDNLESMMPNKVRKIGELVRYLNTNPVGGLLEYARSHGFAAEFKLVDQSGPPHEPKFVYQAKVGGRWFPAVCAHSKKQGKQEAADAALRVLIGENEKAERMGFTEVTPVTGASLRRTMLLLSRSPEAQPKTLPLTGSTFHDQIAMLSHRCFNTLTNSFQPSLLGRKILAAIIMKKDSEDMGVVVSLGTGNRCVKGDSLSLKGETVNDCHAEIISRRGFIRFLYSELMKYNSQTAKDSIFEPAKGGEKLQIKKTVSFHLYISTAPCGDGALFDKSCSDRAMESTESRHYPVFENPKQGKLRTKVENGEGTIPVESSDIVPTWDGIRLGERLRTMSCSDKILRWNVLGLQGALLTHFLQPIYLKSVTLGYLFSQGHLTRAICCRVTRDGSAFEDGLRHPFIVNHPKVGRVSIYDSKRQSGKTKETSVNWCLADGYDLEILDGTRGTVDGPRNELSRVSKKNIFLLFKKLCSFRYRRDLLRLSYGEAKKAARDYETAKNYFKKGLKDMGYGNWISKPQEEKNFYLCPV
UniProt P0A7G6, sequence (whole entry, unmodified, looked up): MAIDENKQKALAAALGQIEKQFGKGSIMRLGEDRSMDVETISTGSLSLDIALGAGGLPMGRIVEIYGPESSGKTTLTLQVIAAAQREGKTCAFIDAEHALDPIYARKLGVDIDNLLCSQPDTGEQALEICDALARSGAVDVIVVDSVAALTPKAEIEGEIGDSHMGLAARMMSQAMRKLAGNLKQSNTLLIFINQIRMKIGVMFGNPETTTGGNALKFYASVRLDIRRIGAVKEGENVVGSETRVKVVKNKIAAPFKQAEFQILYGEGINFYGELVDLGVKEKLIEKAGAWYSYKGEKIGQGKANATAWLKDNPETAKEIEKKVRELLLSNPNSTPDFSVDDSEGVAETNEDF
UniProt Q99383, sequence (whole entry, looked up): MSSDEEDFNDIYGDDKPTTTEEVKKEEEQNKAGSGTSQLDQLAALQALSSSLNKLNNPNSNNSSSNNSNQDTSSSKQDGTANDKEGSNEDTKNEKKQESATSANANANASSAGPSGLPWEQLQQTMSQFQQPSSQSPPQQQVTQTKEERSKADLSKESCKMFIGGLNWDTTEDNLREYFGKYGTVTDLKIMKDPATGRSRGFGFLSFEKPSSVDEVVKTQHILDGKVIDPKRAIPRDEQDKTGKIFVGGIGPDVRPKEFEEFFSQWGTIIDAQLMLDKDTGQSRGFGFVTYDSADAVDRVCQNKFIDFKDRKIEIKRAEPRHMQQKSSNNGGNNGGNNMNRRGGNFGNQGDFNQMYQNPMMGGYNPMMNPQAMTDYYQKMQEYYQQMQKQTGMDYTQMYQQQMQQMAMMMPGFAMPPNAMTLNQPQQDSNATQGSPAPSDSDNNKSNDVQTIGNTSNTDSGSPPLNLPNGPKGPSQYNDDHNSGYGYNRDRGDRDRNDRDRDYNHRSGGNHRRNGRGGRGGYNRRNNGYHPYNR
UniProt P18848, sequence (whole entry, unmodified, looked up): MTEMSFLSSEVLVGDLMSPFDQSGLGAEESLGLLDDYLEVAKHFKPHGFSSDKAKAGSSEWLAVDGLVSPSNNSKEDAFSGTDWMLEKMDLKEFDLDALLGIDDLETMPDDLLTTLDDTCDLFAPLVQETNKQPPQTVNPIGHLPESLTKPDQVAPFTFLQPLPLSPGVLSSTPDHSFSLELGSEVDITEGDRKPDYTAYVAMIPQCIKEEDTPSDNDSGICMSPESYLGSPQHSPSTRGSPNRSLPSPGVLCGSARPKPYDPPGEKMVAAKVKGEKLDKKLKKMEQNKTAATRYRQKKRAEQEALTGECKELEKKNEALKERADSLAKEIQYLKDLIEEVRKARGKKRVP
UniProt P13500, sequence (whole entry, looked up): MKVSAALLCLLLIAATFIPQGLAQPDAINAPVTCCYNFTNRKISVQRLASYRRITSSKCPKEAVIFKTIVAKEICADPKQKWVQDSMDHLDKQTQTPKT

CTCAGGAATTCCTCTAAAGTAATGTGGAGCTCAGTTCAAGTCAATCGGTCC (dsDNA; 5'-amino-C6 primer)  Kd (SPT15/TOA1/TOA2/SUA7 1-240; 1-286; 1-122; 1-345; array; double-stranded DNA, one strand shown; TBP:TFIIA:TFIIB ternary complex): 2.11 ± 0.33 nM
CACCATCCACTAC / ATGTAGTTGTAGTGGATGGTGGTAC (dsDNA; primer-template)  Kd (POLH 1-432 C227Y (Homo sapiens, UniProt Q9Y253); fluorescence polarization; together with: MgCl2 5 mM): 5.1 ± 0.4 nM
GGATCTCGACGCTCTCCCTT (dsDNA)  Kd (RECQL 49-616 (Homo sapiens, UniProt P46063); fluorescence anisotropy; double-stranded DNA, one strand shown; Mg2+ 5 mM, without ADPNP): 589 ± 62 nM
GTGTTCGGACTCTGCCTCAAGACGGTAGTCAACGTGCTTG (dsDNA)  Kd (XRS2 1-325 (Saccharomyces cerevisiae, UniProt P33301); EMSA; double-stranded DNA, one strand shown; Hill fit, apparent): 1800 ± 100 nM
AGTCCGTGGTAGGGCAGGTTGGGGTGACT (ssDNA)  Kd (F2 / (Homo sapiens); fluorescence anisotropy; single-stranded DNA): 33.4 ± 3.7 nM
GAUAAAGAUCAUGACAUCGACUACAAGGACGACGACGACAAGGUUGUGGAGCUGAUCGAGAAGCACCACCACCACCACCACAAAGUGGUGAUGAACUAA (RNA; predicted 2-5 helices)  Kd (FXR1 1-539 (Homo sapiens); fluorescence anisotropy; folded RNA; together with: tRNA competitor): 157 ± 59 nM
CTGAAGGGGGGGCTATAAAAGTTTATGGGGGCTCCTCAAGTCAATCGGTCC (dsDNA; 5'-amino-C6 primer)  Kd (SPT15/TOA1/TOA2/SUA7 1-240; 1-286; 1-122; 1-345; array; double-stranded DNA, one strand shown; TBP:TFIIA:TFIIB ternary complex): 10.2 ± 7.16 nM
CACGCACGCACG (dsDNA)  Kd (Fibroin-modulator-binding protein-1; ITC; double-stranded DNA, one strand shown): 7570 ± 904 nM
TAAGACACGATGCGATAAAATCTGTTTGTAAAATTTATTAAGGGTACAAATTGCCCTAGC (dsDNA)  Kd (CGAS K394E; fluorescence anisotropy; double-stranded DNA, one strand shown): 510 ± 27 nM
TACATACATACA (dsDNA)  Kd (Fibroin-modulator-binding protein-1; ITC; double-stranded DNA, one strand shown): 642 ± 57.3 nM
CTCAGGAATTCCTAGAAAGTAATGTGGAGCTCAGTTCAAGTCAATCGGTCC (dsDNA; 5'-amino-C6 primer)  Kd (SPT15/TOA1/TOA2/SUA7 1-240; 1-286; 1-122; 1-345; array; double-stranded DNA, one strand shown; TBP:TFIIA:TFIIB ternary complex): 4.78 ± 0.62 nM
CACTCTGACGTCACACTC (dsDNA)  Kd (ATF4 276-351 C310A (Homo sapiens, UniProt P18848); fluorescence polarization; double-stranded DNA, one strand shown; together with: Mg2+ 10 mM): 110 ± 20 nM
GCTCAGTTCCCTGCTGGAAACGCCGCGGTCGTAGTAATATAGATAGGTCTGGATCAGATGTTGTTTCGGGGATTGTCAACAGCTGAGC (dsDNA)  Kd (EWSR1 1-656 (Homo sapiens, UniProt Q01844); EMSA; double-stranded DNA, one strand shown): 103 ± 5 nM
CAGGCAGGCAGG (dsDNA)  Kd (Fibroin-modulator-binding protein-1; ITC; double-stranded DNA, one strand shown): 25600 nM
TGACGTAGATTCGAATCGTTAGTGAGAGCTTAATTGCTGAATCTGGTG (ssDNA)  Kd (MGM101 23-269 (Saccharomyces cerevisiae, UniProt P32787); fluorescence polarization; single-stranded DNA): 540 ± 110 nM
CGCCGCCTAAGGCGATGGCGGTAGCCA (DNA stem-loop; stem-loop)  Kd (CCL2 24-99 (Homo sapiens, UniProt P13500); BLI; folded DNA): 3.98 nM
DNA 1 TGGGTGGGTAGGGTGGGTAGGGGAGGAT / DNA 2 ATCCTCCCCTA (DNA; intramolecular parallel G4, 5' overhang, 11-bp duplex)  Kd (REV1 330-833 F427L (Homo sapiens, UniProt Q9UBZ9); FP; folded DNA; KCl 100 mM): 3.7 ± 0.8 nM
TTCTACGAGATCGTCATGAC (ssDNA; m6A in GATC)  Kd (recA full length assumed E39K (Escherichia coli, UniProt P0A7G6); BLI; single-stranded DNA; together with: ATPgS): 110 nM
TAACAGTCACCCCCCNACTAAC / GTTAGTTGGGGGGTGACTGTTA (dsDNA; blunt, abasic site with mTAP oxime)  Kd (TFAM 43-246 (Homo sapiens, UniProt Q00059); fluorescence polarization; apparent): 0.67 ± 0.12 nM
AAAGAAAGAAAGAAAGAAAGAAAG (ssDNA)  Kd (CGAS K394E; fluorescence anisotropy; single-stranded DNA): 1130 ± 48 nM
DNA 1 GGATCTCGACGCTCTCCCTT / DNA 2 GTCGAGATCC (dsDNA; 3' 10-nt overhang, blunt end)  Kd (RECQL 49-616 D230A/R232A (Homo sapiens, UniProt P46063); fluorescence anisotropy; double-stranded DNA; Mg2+ 5 mM, together with: ADPNP 2 mM): 92 ± 16 nM
RNA 1 UAAGACACGAUGCGAUAAAAUCUGUUUGUAAAAUUUAUUAAGGGUACAAAUUGCCCUAGC / RNA 2 GCUAGGGCAAUUUGUACCCUUAAUAAAUUUUACAAACAGAUUUUAUCGCAUCGUGUCUUA (dsRNA)  Kd (CGAS; fluorescence anisotropy; double-stranded RNA): 780 ± 440 nM
GGTTAGGGTTAG (ssDNA; 5'-phosphate)  Kd (POT1 1-299 (Homo sapiens, UniProt Q9NUX5); EMSA; single-stranded DNA): 0.19 nM
CGCTATTTACGTCACTACGTCAGCACGTCAGGACGTCAGTACGTCATCACGTCATCTCCGGCGGTATGAC (dsDNA)  Kd (YAP1 full length assumed; MITOMI; double-stranded DNA, one strand shown; not purified): 2300 ± 200 nM
DNA 1 CACTGGCCGTCTTACGGTCGCTCTGCTCGACG / DNA 2 CGACCGTAAGACGGCCAGTG (dsDNA; 20 bp, 3' 12 nt overhang)  Kd (RECQL 63-592 E328A (Bos taurus, UniProt A0JN36); fluorescence anisotropy; double-stranded DNA; together with: Mg2+ 3 mM): 11.3 ± 1.6 nM
AAAUGAGGCGCUGCAUGUGGCAGUCUGCCUUUCUUU (structured RNA)  Kd (MLLT1 1-140 (Homo sapiens, UniProt Q03111); fluorescence polarization; folded RNA): 150 ± 17 nM
CGCGCG (XNA; fully LNA blunt duplex)  Kd (ADAR 133-199 (Homo sapiens, UniProt P55265); ITC; modified nucleic acid, one strand shown): 4240 ± 660 nM
GATCGATCGATC (dsDNA)  Kd (Fibroin-modulator-binding protein-1; ITC; double-stranded DNA, one strand shown): 5280 ± 605 nM
CGCACCTAATGACGCAATGACGGAATGACGTAATGACTCAATGACTGAATGACTTCTCCGGCGGTATGAC (dsDNA)  Kd (YAP1 full length assumed; MITOMI; double-stranded DNA, one strand shown; not purified): 2000 ± 200 nM
TCACCNTCGTACGACTC / GAGTCGTACGAAGGTGA (dsDNA; blunt, tetrahydrofuran abasic site)  Kd (NEIL1 full length assumed K242R (Homo sapiens); EMSA; Hill fit): 240 ± 16.7 nM
GGTGGGTGGGTG (dsDNA)  Kd (Fibroin-modulator-binding protein-1; ITC; double-stranded DNA, one strand shown): 7270 nM
ATTTATATTATTTATTCATATTTATATTTA (ssDNA)  Kd (APOBEC3F full length assumed D311K (Homo sapiens, UniProt Q8IUX4); EMSA; single-stranded DNA): 1100 ± 359 nM
AAAGAAAGAAAGAAAGAAAGAAAGAAAGAAAGAAAGAAAGAAAGAAAGAAAGAAAGAAAG (ssDNA)  Kd (CGAS; fluorescence anisotropy; single-stranded DNA): 549 ± 65 nM
CGCGGCTTGCGCCATTCTGACCGCGCTCTGCACGGAAAGATTTTTCAAAACGATAATCGAT (dsDNA)  Kd (allR full length assumed; BLI; double-stranded DNA, one strand shown): 98.9 nM
DNA 1 AAATCTTTTCTTTTTTCCATTCATTCATTAAATTTTCAATTCAATCGGTCC / DNA 2 GGACCGATTGACTTGAAAATTTAATGAATGAATGGAAAAAAGAAAAGATTT (dsDNA; 5'-amino-C6 primer)  Kd (SPT15/TOA1/TOA2/SUA7 1-240; 1-286; 1-122; 1-345; array; double-stranded DNA; TBP:TFIIA:TFIIB ternary complex): 1.89 ± 0.16 nM
CGCGCGCGCGCG (dsDNA)  Kd (Fibroin-modulator-binding protein-1; ITC; double-stranded DNA, one strand shown): 3400 ± 627 nM
TCCTGAAGGGGAGCCCTAGCTTGGTCCTATCGTCGTCAAGTCAATCGGTCC (dsDNA; 5'-amino-C6 primer)  Kd (SPT15/TOA1/TOA2/SUA7 1-240; 1-286; 1-122; 1-345; array; double-stranded DNA, one strand shown; TBP:TFIIA:TFIIB ternary complex): 3.09 ± 0.77 nM
TTGATAAGAGGTCATTTTTGCGGATGGCTTAGAGCTTAATTGCTGAATCTGGTGCTGTAGCTCAACATGTTTTAAATATGCAA (ssDNA)  Kd (MGM101 23-269 R215A (Saccharomyces cerevisiae, UniProt P32787); fluorescence polarization; single-stranded DNA): 990 ± 160 nM
GUGGUCCCCG (ssRNA)  Kd (TARDBP 102-269 (Homo sapiens, UniProt Q13148); BLI; RNA): 750 ± 150 nM
GTATAAAAGTTCCTGAAGGGGGGGCGGGGTGGGGGTCAAGTCAATCGGTCC (dsDNA; 5'-amino-C6 primer)  Kd (SPT15/TOA1/TOA2/SUA7 1-240; 1-286; 1-122; 1-345; array; double-stranded DNA, one strand shown; TBP:TFIIA:TFIIB ternary complex): 2.06 ± 0.28 nM
GAAGATGCCGCGAAAATTCTTTCCTTTGGCGCGGATAAAATTTCCATCAACTCTCCTGCGC (dsDNA)  Kd (allR full length assumed; BLI; double-stranded DNA, one strand shown): 45.9 nM
AGAACAGAGTGTTCT (dsDNA)  Kd (NR3C1 98-525 (Homo sapiens, UniProt P04150); fluorescence anisotropy; double-stranded DNA, one strand shown): 230 nM
CGCACGCACGCA (dsDNA)  Kd (Fibroin-modulator-binding protein-1; ITC; double-stranded DNA, one strand shown): 4430 ± 542 nM
TTCCTGAAGGGGGGCTATAAAAGGGGGTGGGGGCGTCAAGTCAATCGGTCC (dsDNA; 5'-amino-C6 primer)  Kd (SPT15/TOA1/TOA2/SUA7 1-240; 1-286; 1-122; 1-345; array; double-stranded DNA, one strand shown; TBP:TFIIA:TFIIB ternary complex): 1.87 ± 0.35 nM
UAUAUAUA (ssRNA)  Kd (HRP1 1-534 (Saccharomyces cerevisiae, UniProt Q99383); fluorescence anisotropy; RNA; apparent): 183 nM
TCCTGAAGGGGCGCACTAGCTTGGTCCTATCGTCGTCAAGTCAATCGGTCC (dsDNA; 5'-amino-C6 primer)  Kd (SPT15/TOA1/TOA2/SUA7 1-240; 1-286; 1-122; 1-345; array; double-stranded DNA, one strand shown; TBP:TFIIA:TFIIB ternary complex): 2.77 ± 0.41 nM
AGGTAGGTAGGT (dsDNA)  Kd (Fibroin-modulator-binding protein-1; ITC; double-stranded DNA, one strand shown): 4420 ± 705 nM

A few entries again:
AGAACAGAGTGTTCT (dsDNA)  Kd (NR3C1 98-525 (Homo sapiens, UniProt P04150); fluorescence anisotropy; double-stranded DNA, one strand shown): 230 nM
AAAUGAGGCGCUGCAUGUGGCAGUCUGCCUUUCUUU (structured RNA)  Kd (MLLT1 1-140 (Homo sapiens, UniProt Q03111); fluorescence polarization; folded RNA): 150 ± 17 nM
CACCATCCACTAC / ATGTAGTTGTAGTGGATGGTGGTAC (dsDNA; primer-template)  Kd (POLH 1-432 C227Y (Homo sapiens, UniProt Q9Y253); fluorescence polarization; together with: MgCl2 5 mM): 5.1 ± 0.4 nM
TTCTACGAGATCGTCATGAC (ssDNA; m6A in GATC)  Kd (recA full length assumed E39K (Escherichia coli, UniProt P0A7G6); BLI; single-stranded DNA; together with: ATPgS): 110 nM
CGCGCG (XNA; fully LNA blunt duplex)  Kd (ADAR 133-199 (Homo sapiens, UniProt P55265); ITC; modified nucleic acid, one strand shown): 4240 ± 660 nM
CGCGGCTTGCGCCATTCTGACCGCGCTCTGCACGGAAAGATTTTTCAAAACGATAATCGAT (dsDNA)  Kd (allR full length assumed; BLI; double-stranded DNA, one strand shown): 98.9 nM
RNA 1 UAAGACACGAUGCGAUAAAAUCUGUUUGUAAAAUUUAUUAAGGGUACAAAUUGCCCUAGC / RNA 2 GCUAGGGCAAUUUGUACCCUUAAUAAAUUUUACAAACAGAUUUUAUCGCAUCGUGUCUUA (dsRNA)  Kd (CGAS; fluorescence anisotropy; double-stranded RNA): 780 ± 440 nM
TTGATAAGAGGTCATTTTTGCGGATGGCTTAGAGCTTAATTGCTGAATCTGGTGCTGTAGCTCAACATGTTTTAAATATGCAA (ssDNA)  Kd (MGM101 23-269 R215A (Saccharomyces cerevisiae, UniProt P32787); fluorescence polarization; single-stranded DNA): 990 ± 160 nM
